Measurements collected from several papers.
Compare with care: the assays were run in different laboratories. “And” joins repeats or separate records; there may be more than shown. ± marks the error that the study gave.
TOP2B: DNA topoisomerase 2-beta (TOP2B, Homo sapiens, UniProt Q02880)
UCHL1: Ubiquitin carboxyl-terminal hydrolase isozyme L1 (UCHL1, Homo sapiens, UniProt P09936)
HNF4A: Hepatocyte nuclear factor 4-alpha (HNF4A, Homo sapiens, UniProt P41235)
GUK1: GUK1 (Homo sapiens, UniProt Q16774)
BEST1: BEST1 (Homo sapiens, UniProt O76090)
Voltage-dependent P/Q-type calcium channel subunit alpha-1A: Voltage-dependent P/Q-type calcium channel subunit alpha-1A (Homo sapiens, UniProt O00555)
T1: RNA aptamer A7C, 5'-triphosphate, 2',3'-cyclic phosphate; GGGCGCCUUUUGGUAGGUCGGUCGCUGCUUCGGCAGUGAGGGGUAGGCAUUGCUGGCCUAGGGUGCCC

Structure (SMILES) | target or system | assay | test system | conditions | how to read | endpoint | value
O=c1nc(SCc2cc(F)cc(C(F)(F)F)c2)nc(SCc2ccc3nc(Cl)ccc3c2)[nH]1 | TOP2B | decatenation |  | 15.6 µM |  | mean decatenated DNA | 51.9%
O=C(Cc1n[nH]c(=O)c2ccccc12)OCC(=O)N1CCN(c2ccccn2)CC1 | Poly [ADP-ribose] polymerase tankyrase-1 (TNKS, Homo sapiens, UniProt O95271) | enzyme activity, inhibitor |  |  |  | ligand efficiency | 0.49
Oc1ccc(/C=C/c2cc(O)cc(O)c2)cc1 | O-methyltransferase (Sorghum bicolor, UniProt A0A1B6PFV1) | ITC |  | concentration not given, exothermic site, two-site model, together with: SFG |  | binding stoichiometry | 0.39
CC[C@@H]1[C@H](F)C(=O)N[C@@H]1COc1nccc2cc(C(N)=O)c(OC)cc12 | Serine/threonine-protein kinase tousled-like 2 (TLK2, Homo sapiens, UniProt Q86UE8) | ATP-site probe binding, ActivX profiling | THP-1 cell lysate | 0.01 mM, Lys1 site |  | inhibition | 16.6%
O=C(CCl)N1N=C(C=Cc2ccco2)CC1c1ccco1 (stereo not drawn) | UCHL1 | covalent, intact protein LC-MS |  | 12.5 µM |  | labelling | 11.6%
O=C(O)c1cccc(C(O)P(=O)(O)O)n1 (stereo not drawn) | Beta-lactamase L1 (Stenotrophomonas maltophilia, UniProt P52700) | binding, inhibitor, nitrocefin progress curves |  |  |  | dissociative half-life | 18 ± 3.3 min
N#Cc1ccc(S(=O)(=O)n2nc(SCc3ccc(Cl)cc3)nc2N)cc1 | Lysophospholipase-like protein 1 (Mus musculus, UniProt Q3UFF7) | enzyme activity, activator, gel-based ABPP | purified protein | concentration not given, together with: FP-rhodamine | reference: DMSO | probe labeling increase | 2.2 fold
C#CCCC1(CC[C@H](NC(=O)NCCCCCCNC(=O)NCCNC(=O)COc2cccc([C@@H](CCc3ccc(OC)c(OC)c3)OC(=O)[C@@H]3CCCCN3C(=O)C(=O)C(C)(C)CC)c2)C(N)=O)N=N1.O=C(O)C(F)(F)F | Peptidyl-prolyl cis-trans isomerase FKBP1A (FKBP1A, Homo sapiens, UniProt P62942) | photoaffinity labeling, in-gel fluorescence, refers to: Alexa Fluor 647 click label |  | 2 µM, UV irradiation 365 nm | higher = more labeling | probe labeling fluorescence | 39400 a.u.
CC(C)=CCC/C(C)=C/C=C/C(C)=C/C=C/C(C)=C/C=C/C=C(C)/C=C/C=C(C)/C=C/C=C(\C)CCC=C(C)C | Beta-lactoglobulin (LGB, Bos taurus, UniProt P02754) | isothermal titration calorimetry |  | concentration not given |  | binding stoichiometry | 1
Nc1nc2c(ncn2[C@@H]2O[C@H](COP(=O)(O)OP(=O)(O)OP(=O)(O)O)[C@@H](O)[C@H]2O)c(=O)[nH]1 | T1, RNA aptamer A7C, 5'-triphosphate, 2',3'-cyclic phosphate | ITC |  |  |  | Kd | 0.0403 µM
CC[C@@H](C)[C@@H](NC(=O)[C@@H](Cc1ccc(O)cc1)NC(=O)[C@H]1CCCN1C(=O)[C@@H](CCCNC(=N)N)NC(=O)[C@H](N)Cc1c[nH]cn1)C(=O)N[C@H](C)C(=O)N[C@H](Cc1c[nH]cn1)C(=O)N[C@H](CCCNC(=N)N)C(=O)N[C@@H](C(=O)N[C@H](Cc1ccc(O)cc1)C(=O)N[C@H](CO)C(=O)N[C@H](Cc1ccccc1)C(N)=O)C(C)C | Transferrin receptor protein 1 (Tfrc, Mus musculus, UniProt Q62351) | flow cytometry | RAW264.7 | 2 h, pH 6, replicate 3, unit not given | reference: 0 h | surface TFRC expression | 0.876
CC(CC(C)(C)c1ccccc1)NS(=O)(=O)c1cccc(Cl)c1O (stereo not drawn) | malate dehydrogenase | enzyme activity, inhibitor |  | 200 µM, pH 7.0, 1% DMSO, aggregation counter-screen |  | remaining activity | 81%
O=C(CCl)N(Cc1ccccc1)Cc1cc2n(n1)CCCC2 | UCHL1 | covalent, intact protein LC-MS |  | 12.5 µM |  | labelling | 19.3%
COc1ccc(C)cc1CN1CCC(c2cc3ncccc3cn2)CC1 | Catenin beta-1, residues 141-305 (CTNNB1, Homo sapiens, UniProt P35222) | ITC |  | 25 °C |  | ΔH | -1.5 kcal/mol
Cc1nc(CSc2nc(SCc3ccc(C(C)C)cc3)nc(=O)[nH]2)cs1 | TOP2B | decatenation |  | 7.8 µM, replicate 2 |  | decatenated DNA | 100%
CCN1CCN(c2cc(N3CCN(CC)CC3)nc(NCCNc3ccnc4cc(Cl)ccc34)n2)CC1 | HNF4A | reporter gene, Gal4 hybrid reporter |  | 20 µM | reference: vehicle | activation | 1.61 fold
CN(C)C(=O)C(CCN1CCC(O)(c2ccc(Cl)cc2)CC1)(c1ccccc1)c1ccccc1 | Calcium-activated potassium channel subunit alpha-1, with LRRC26 γ1 subunit (KCNMA1, Homo sapiens, UniProt Q12791) | BK channel conductance, inside-out patch clamp |  | BKα/γ1, Vm 50 mV, nominally Ca2+-free |  | Hill coefficient | 0.802 ± 0.11
Nc1ncnc2c1ncn2[C@@H]1O[C@H](CO[P@](=O)(O)O[P@](=O)(O)O[P@@](=O)(O)S)[C@@H](O)[C@H]1O | GUK1 | ITC |  | molar ratio 3.053 |  | ΔH | -0.246 kcal/mol
CCCCCCCCC(=O)c1cc(O)c(O)c(O)c1 | HNF4A | reporter gene, Gal4 hybrid reporter |  | 10 µM | reference: vehicle | activation | 1.15 fold
CC1CS(=O)(=O)CCN1/N=C/c1ccc([N+](=O)[O-])o1 (stereo not drawn) | Trypanosoma cruzi | reporter mRNA translation, Renilla luciferase reporter | cell extract | 40 µM |  | inhibition | 0.2%
COc1ccc(C=C(C#N)C(=O)Nc2ccc(C)cc2)cc1O | UCHL1 | covalent, intact protein LC-MS |  | 12.5 µM |  | labelling | 9.48%
O=C(O)c1ccc(O)cc1 | BEST1 | whole-cell patch clamp | HEK293 transiently expressing channel | concentration not given, membrane potential -100 mV |  | current density | -23.9 pA/pF and -36.8 pA/pF and -23.2 pA/pF and -33.3 pA/pF and -42.7 pA/pF and -40.9 pA/pF
C=CC(=O)N1CCC[C@@H](n2nc(-c3ccc(Oc4ccccc4)cc3)c3c(N)ncnc32)C1 | Activated CDC42 kinase 1 (TNK2, Homo sapiens, UniProt Q07912) |  |  | 10 µM |  | remaining activity | 38.1%

Structure (SMILES) | target or system | assay | test system | conditions | how to read | endpoint | value
CCc1ccc(C(COC)NS(=O)(=O)c2ccsc2C(=O)O)o1 (stereo not drawn) | malate dehydrogenase | enzyme activity, inhibitor |  | 200 µM, pH 7.0, 1% DMSO, aggregation counter-screen |  | remaining activity | 106%
C=CC(=O)N1CCC(COCC(=O)N2CCN(c3nc(-c4cnc(N)nc4C(F)F)nc(N4CCOC[C@@H]4C)n3)CC2)CC1 | Cyclin-dependent kinase 11A (CDK11A, Homo sapiens, UniProt Q9UQ88) | KINOMEscan |  | 1 µM |  | remaining binding | 94%
CC[C@H](C)C(=O)O[C@H]1C[C@H](O)C=C2C=C[C@H](C)[C@H](CC[C@@H](O)C[C@@H](O)CC(=O)O)[C@H]21 | Voltage-dependent P/Q-type calcium channel subunit alpha-1A | ion current, antagonist | HEK293 | 3 µM |  | inhibition | -3%
O=S(=O)(O)O | GUK1 | enzyme activity, NADH-coupled |  | 5 mM, together with: ATP 4000 µM |  | reaction velocity | 0.133 µM/s and 0.146 µM/s and 0.123 µM/s
C[C@H](NCc1ccc(OCc2ccccc2F)cc1)C(N)=O | Voltage-dependent P/Q-type calcium channel subunit alpha-1A | ion current, antagonist, automated patch clamp |  |  |  | IC30 | 7.01 µM
O=S(=O)(O)SSS(=O)(=O)O | uncharacterized protein (Pelagibacter ubique, UniProt Q4FMG4) | differential scanning fluorimetry | Candidatus Pelagibacter ubique | in-house screen |  | thermal shift | 5.64 °C
CCOC(=O)c1c(NC(=O)Cn2cnc([N+](=O)[O-])n2)sc2c1CCC(C)C2 (stereo not drawn) | Trypanosoma cruzi | reporter translation, Renilla luciferase mRNA translation | cell-free extract | 40 µM | reference: DMSO | inhibition | 5.6%
CN1CCN(c2cc(-c3ccncc3)c(-c3ccc4ccccc4c3)nn2)CC1 | C-C chemokine receptor type 3 (CCR3, Homo sapiens, UniProt P51677) | agonist, FLIPR |  | 12.5 µM |  | activation | -0.9%
N#CC(=CC1=Cc2ccccc2OC1)C(=O)Nc1ccc(C(=O)O)cc1 | UCHL1 | covalent, intact protein LC-MS |  | 12.5 µM |  | labelling | 20.8%
O=C1NC(=O)C(c2ccccc2)(c2ccccc2)N1 | Voltage-dependent P/Q-type calcium channel subunit alpha-1A | ion current, antagonist | HEK293 | 10 µM |  | inhibition | 28%
CCOC(=O)C(CC(C)CC)NS(=O)(=O)c1cccc(Cl)c1O (stereo not drawn) | malate dehydrogenase | enzyme activity, inhibitor |  | 200 µM, pH 7.0, 1% DMSO, aggregation counter-screen |  | remaining activity | 99%
[2H]c1cc(C)c(NC(=O)c2cnc(Nc3cc(N4CCCCC4)nc(C)n3)s2)c(Cl)c1 | Platelet-derived growth factor receptor alpha (PDGFRA, Homo sapiens, UniProt P16234) |  |  | 0.01 µM |  | inhibition | 30 to 90%
O=C(O)c1ccc([N+](=O)[O-])cc1 | BEST1 | whole-cell patch clamp | HEK293 transiently expressing channel | concentration not given, membrane potential -40 mV |  | current density | -27.9 pA/pF and -28.4 pA/pF and -16.2 pA/pF and -48 pA/pF and -40.1 pA/pF and -38 pA/pF and -16.4 pA/pF
CC(Oc1ccccc1)C(=O)NCc1ccccn1 (stereo not drawn) | Leucine-rich repeat serine/threonine-protein kinase 2, WD40 domain (LRRK2, Homo sapiens, UniProt Q5S007) | binding, affinity selection mass spectrometry |  |  | reference: other proteins in batch | log fold enrichment | 0.313
Cc1ccc(C2CC(c3cccs3)=NN2C(=O)CCl)cc1 (stereo not drawn) | UCHL1 | covalent, intact protein LC-MS |  | 12.5 µM |  | labelling | 29.8%
Cc1cc(Oc2ncccc2CN2CCN(c3ccccc3C(F)(F)F)CC2)ccc1-c1c(C)c(=O)[nH]c(=O)n1C | Alpha-2C adrenergic receptor (ADRA2C, Homo sapiens, UniProt P18825) | binding, radioligand binding |  | together with: [3H]rauwolscine | reference: Ki alpha2A over Ki alpha2C | selectivity ratio | 10
Nc1ncnc2c1ncn2[C@@H]1O[C@H](COP(=O)(O)CP(=O)(O)OP(=O)(O)O)[C@@H](O)[C@H]1O | P2X purinoceptor 1 (P2RX1, Homo sapiens, UniProt P51575, L218T) | calcium influx |  | 31.6 nM | reference: ionomycin response | calcium influx | 14.8% and 7.3% and 6.77%
CCCC(=O)NN(CC)c1cc(C)c(C#N)c(Cl)n1 | UCHL1 | covalent, intact protein LC-MS |  | 12.5 µM |  | labelling | 9.25%
Cc1cc(-c2ccnc3[nH]cc(F)c23)cc(F)c1[C@@]1(O)[C@H](C)CN(C2CCS(=O)(=O)CC2)C[C@@H]1C | Serine/threonine-protein kinase LATS1 (LATS1, Homo sapiens, UniProt O95835) | ATP/ADP probe binding, KiNativ | HEK293T lysate | 1 µM, Lys1 peptide ALYATKTLR |  | probe labelling inhibition | 58.9%
CC(=O)Nc1ccc(C(=O)C(C)Cl)cc1 (stereo not drawn) | UCHL1 | covalent, intact protein LC-MS |  | 12.5 µM |  | labelling | 16.7%
COc1cc(-c2cncc3c2CN(C)Cc2cc(N4CCNCC4)ccc2-3)cc(OC)c1OC | Tyrosine-protein kinase BTK (BTK, Homo sapiens, UniProt Q06187, R28H) | kinase activity |  | 1 µM, together with: ATP 10 µM | reference: DMSO control | remaining activity | 102%
O=C(NC1CCC1)c1ccc2nc(-c3cccc(NS(=O)(=O)NCCN4CCCCC4)c3)cn2c1 | Leucine-rich repeat serine/threonine-protein kinase 2 (LRRK2, Homo sapiens, UniProt Q5S007, G2019S) | enzyme activity |  | 10 µM |  | remaining activity | 94%

For quick reference, copied from above:
Structure (SMILES) | target or system | assay | test system | conditions | how to read | endpoint | value
CCN1CCN(c2cc(N3CCN(CC)CC3)nc(NCCNc3ccnc4cc(Cl)ccc34)n2)CC1 | HNF4A | reporter gene, Gal4 hybrid reporter |  | 20 µM | reference: vehicle | activation | 1.61 fold
N#CC(=CC1=Cc2ccccc2OC1)C(=O)Nc1ccc(C(=O)O)cc1 | UCHL1 | covalent, intact protein LC-MS |  | 12.5 µM |  | labelling | 20.8%
O=C(CCl)N1N=C(C=Cc2ccco2)CC1c1ccco1 (stereo not drawn) | UCHL1 | covalent, intact protein LC-MS |  | 12.5 µM |  | labelling | 11.6%
